Experimental data pooled from the literature.
Each numbered part is a random draw from the data of one study; scales do not carry over between parts.

Sample 1
Target: RNA binding protein fox-1 homolog 2, RRM domain, GST-SBP tag (RBFOX2, Homo sapiens, UniProt O43251-10, residues 100-194)
Method: RNA Bind-n-Seq
Molecule type: RNA
Medium: in vitro
Tested at: 365 nM
Setting: natural RNA segment, single round, ends assumed
Reference: no-protein control
Direction: higher = stronger binding
Target sequence (chain): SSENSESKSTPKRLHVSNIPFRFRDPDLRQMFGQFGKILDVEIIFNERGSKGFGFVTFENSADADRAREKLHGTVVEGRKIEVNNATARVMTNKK
| Sequence | RBNS enrichment (R) |
| --- | --- |
| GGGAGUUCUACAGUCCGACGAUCCCUGCAGGUCUGCCCGCCUGCCAAUCGGAGCACAGCUGGACUGUGUGGCUGGGGCCUGACACUGAGCUGUAGGGAAACUGAACUGUGAGGACCUCUGGUGAGAGGCCAGUUGGAAUUCUCGGGUGCCAA | 0.762 |
| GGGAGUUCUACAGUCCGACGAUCGUGCUUGUAAGUGGUUAAAUAAUUUGUAAGCAUUUUUGAUCUGUCUGUCUGUCUCUACAUGGAUGGACUGAAUAAGAAUGUAAAUAAUAUUUAUUGCAAAGCAAGCCUGGUGGAAUUCUCGGGUGCCAA | 0.298 |
| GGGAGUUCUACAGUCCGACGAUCAGACUUUUAAUGUAUUUCUUUAAUUUGAAAUGUUUUGUGGAUUGUGAAAUAAAAAUAAAUUUAUGUCAAGUUUUAUUCAAAAUUCAUUUAUGAAAUAAUGCCAACACUGUUGGAAUUCUCGGGUGCCAA | 0.747 |
| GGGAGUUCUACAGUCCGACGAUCCCGCACUUAGCAGGGGGACGGGACCGAAGCUCCCUCAAUCCUUGUCUGGUACUAGAUUUGCUCCUGUCCCACCCCGCAGUCCCCUGAGGAGGGCGAUGUGCGCCCUCUUUUGGAAUUCUCGGGUGCCAA | 0.27 |
| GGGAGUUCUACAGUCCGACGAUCAUAUAAUUGUUUCAGUCCUAUGGCAUGGUGAUAGCAUAUGUGUUCAGGUUUAUAGCUGUUGUGUUUAAAGAUUGAAAAAAGUGGAAAACAUCUUUGUACAUUUAAGUCUGUGGAAUUCUCGGGUGCCAA | 1.32 |
| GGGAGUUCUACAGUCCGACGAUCCCUGCUGGCAGCCUGCAUAGGCCUAGGGCCUCCAUUCUGCCGUAUAUUGAAGAUUUAAAGACAGUGGCACACACACUUGAACAAAAGCAAGCCCUCAGUGUUUCCAGCCAUGGAAUUCUCGGGUGCCAA | 0.254 |
| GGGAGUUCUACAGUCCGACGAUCGAAUGGGACUGGGCUGACGCCCUGCAUUCAGCCUGUGCCUUUCCUGGGGUUUCUUUUCUGUUCUUUUCGGAGGAGAGGGCCCGAGAAGGGGCCAUACCAGGGCGCGGCGCUGGAAUUCUCGGGUGCCAA | 0.584 |
| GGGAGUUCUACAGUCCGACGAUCGUGUUUCCAGGCACUUAGGACACCCUUCCCCACGUUGCCAUCUUACUGACAGUUCAAAUGACUCUCCUUUUUUGUUCGUUAGUAACAAUCUUCAUUUGACACCUUAAUACUGGAAUUCUCGGGUGCCAA | 0.622 |
| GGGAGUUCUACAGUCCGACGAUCUGGAAACAAACCCAUGAAUGAAGAAGAAACUCUUAAAAUGGUUCUGUCUGCACUGAUUCAAAGAGGAUUUGUGGGAAAGAAAACUAAAGGCAUGGGUUUCGUCCAAAAAUUGGAAUUCUCGGGUGCCAA | 1.09 |

Sample 2
Target: Centromere-binding protein 1, full length, His-tagged (CBF1, Saccharomyces cerevisiae, UniProt P17106, residues 1-351)
Sequence of UniProt P17106 (whole entry, looked up): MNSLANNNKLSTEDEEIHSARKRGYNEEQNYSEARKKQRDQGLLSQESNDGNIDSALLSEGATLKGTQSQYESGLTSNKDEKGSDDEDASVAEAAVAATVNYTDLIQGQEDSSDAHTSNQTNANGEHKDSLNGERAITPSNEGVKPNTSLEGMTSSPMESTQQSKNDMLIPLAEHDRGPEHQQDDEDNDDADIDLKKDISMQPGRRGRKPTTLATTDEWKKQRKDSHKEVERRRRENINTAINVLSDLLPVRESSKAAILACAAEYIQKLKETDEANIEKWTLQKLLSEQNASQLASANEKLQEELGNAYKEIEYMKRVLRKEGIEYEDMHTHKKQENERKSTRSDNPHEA
Method: competition protein-binding microarray
Molecule type: double-stranded DNA, one strand shown
Medium: in vitro
Tested at: 2 µM
Setting: whole 60-bp probe, lowest competitor level
Together with: Pho4 competitor, 0.05 µM
Direction: higher = stronger binding
| Sequence | fluorescence intensity |
| --- | --- |
| AAGGCCACTGTTTATATCGTGCGATGGCTGGCAGGGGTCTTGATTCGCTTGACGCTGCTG | 62.3 a.u. |
| GTCTTGTCTCATTTTCACGTGCCCTTCCCCACTTCAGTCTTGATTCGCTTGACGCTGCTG | 1070 a.u. |
| CTTTCCCGATCTTGTTTCGTGGGTGTAGCACATTTGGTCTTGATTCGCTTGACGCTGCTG | 81 a.u. |
| AAAGCGGTAATTTGGGACGTGGGTGCAGATATCTATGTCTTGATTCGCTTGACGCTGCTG | 62.3 a.u. |
| CTTCTGTAAATTTTTCACGTGTAGTGAAGCGCCCCGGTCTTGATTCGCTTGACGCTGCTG | 626 a.u. |
| GGCTCGCTAGGCGGCTACATGACAAAATGCCCAAGTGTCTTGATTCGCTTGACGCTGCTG | 54.1 a.u. |
| GATGATGACAAATTCAGCGTGAGGACATCAACTCCCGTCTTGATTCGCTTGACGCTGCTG | 74.3 a.u. |
| TTGTTCCGCGGAAAGCACGTGAGCCTAATCCACTCGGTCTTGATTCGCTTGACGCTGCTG | 2150 a.u. |
| CAGCCTCCATTCGGTAGCGTGCTGTATGTCAACAAAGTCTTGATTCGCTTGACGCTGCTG | 79.5 a.u. |
| GTCTTGTCTCATTGTCATGTGGGTGTCCCCACTTCAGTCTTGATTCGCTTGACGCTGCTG | 196 a.u. |
| GGGTACCCAATTCGTCACGTTTCACGAATTCTCGGGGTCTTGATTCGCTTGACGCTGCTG | 518 a.u. |
| CTTTCCCGATCTTTTCACGTGCACTTAGCACATTTGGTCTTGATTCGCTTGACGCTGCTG | 1190 a.u. |
| AAATTACTAAGTTGAAGTGTGGGTGACGCCGTATGAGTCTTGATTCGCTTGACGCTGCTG | 59.6 a.u. |
| CTTCTGTAAATTTGTCACCTTACTTGACGCGCCCCGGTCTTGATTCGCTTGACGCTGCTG | 86.8 a.u. |
| GTCTTGTCTCATTTTCACGTGAAGTTCCCCACTTCAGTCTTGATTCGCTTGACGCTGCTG | 582 a.u. |
| AGAAATGTCCCGGAAAACGTGGGTATGCGGTGAGGAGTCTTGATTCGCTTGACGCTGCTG | 92.5 a.u. |

Sample 3
Target: Histone acetyltransferase KAT6A, winged helix 1, GST fusion (KAT6A, Homo sapiens, UniProt Q92794, residues 1-85)
Method: protein binding microarray
Molecule type: double-stranded DNA, one strand shown
Medium: in vitro
Tested at: not given
Setting: 8-mer, flanks averaged, mean of 2 arrays, mostly near background
Reference: not given
Direction: higher = stronger binding
Construct (chain): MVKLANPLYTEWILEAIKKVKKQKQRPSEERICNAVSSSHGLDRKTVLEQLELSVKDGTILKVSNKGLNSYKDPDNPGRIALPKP
| Sequence | E-score |
| --- | --- |
| CCATTGGA | -0.175 |
| GTTGGATA | -0.224 |
| GCTTAACA | 0.0321 |
| CTTAACTA | -0.103 |
| CCCTAAGC | -0.0367 |
| TAAAACGA | -0.208 |
| AAAAAAAA | -0.157 |
| TCTGCCCA | -0.274 |
| ACACTCAC | -0.104 |
| CAGCCGGC | 0.385 |
| GACCGAAC | -0.0169 |
| CGGAAAAC | 0.142 |
| CATTCGGA | 0.00207 |
| CGAAGGGA | -0.0418 |
| GCTTGCTA | -0.119 |
| AGCGCGTG | 0.321 |
| CAGCGTAG | 0.0425 |
| AGAATACC | -0.0547 |

Sample 4
Target: Ras GTPase-activating protein-binding protein 1, full length (G3BP1, Homo sapiens, UniProt Q13283)
Sequence of UniProt Q13283 (whole entry, looked up): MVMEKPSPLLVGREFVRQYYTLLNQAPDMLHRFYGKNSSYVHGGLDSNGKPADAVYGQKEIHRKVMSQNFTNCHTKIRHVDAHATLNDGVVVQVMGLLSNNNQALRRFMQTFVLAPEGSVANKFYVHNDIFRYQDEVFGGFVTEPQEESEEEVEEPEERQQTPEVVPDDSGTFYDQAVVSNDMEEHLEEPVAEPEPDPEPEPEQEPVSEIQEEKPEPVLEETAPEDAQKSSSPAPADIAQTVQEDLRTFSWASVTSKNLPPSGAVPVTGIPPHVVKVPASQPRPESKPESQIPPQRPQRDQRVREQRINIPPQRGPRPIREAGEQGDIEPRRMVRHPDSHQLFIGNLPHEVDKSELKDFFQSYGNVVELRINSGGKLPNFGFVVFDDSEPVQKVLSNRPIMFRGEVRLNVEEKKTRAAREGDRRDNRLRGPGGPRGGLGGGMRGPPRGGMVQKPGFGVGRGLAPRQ
Method: RNA Bind-n-Seq
Molecule type: RNA
Medium: in vitro
Tested at: 200 nM
Setting: whole 134-nt RNA, ends assumed
Together with: 150 mM LiCl
Reference: input library
Direction: higher = stronger binding
Each molecule: 7-deaza-guanosine replaces G
| Sequence | log2 enrichment |
| --- | --- |
| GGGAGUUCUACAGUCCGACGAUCUUCACACCAAGCUGGGGAACAUCAAGACCUUAAACCUGGCAGGCAACCUCCUAGAGAGUCUGAGUGGCCUGCACAAGCUCUACUCACUGGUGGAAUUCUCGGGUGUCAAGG | -0.625 |
| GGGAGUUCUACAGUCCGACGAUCUGGCCCUGGUGGCAUGCGGGGAGGAUGAGGUGGCCUCAUGGAUCGUGGUGGUCCCGGUGGAAUGUUCAGAGGUGGCCGUGGUGGAGACAGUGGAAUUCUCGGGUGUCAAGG | 0.459 |
| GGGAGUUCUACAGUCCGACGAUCCCUGUGCUACACAUCGUAUGUACCGAAUCAAACCCCCCCAAAUUUUUAAACCCCCCCAAAAAAGUAUUAUGUUACGCCGUUCGGAUCUGCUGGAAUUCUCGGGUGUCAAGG | 1.1 |
| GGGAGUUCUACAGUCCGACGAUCUCAACAAGAGAUGUUCAAGAACUUUUGACACAAUAUACCAAGUUUGCACAGAUGGUAAAAAAGAUGGGAGGUAUCAAAGGACUUUUCAAAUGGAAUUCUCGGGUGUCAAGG | -1.09 |
| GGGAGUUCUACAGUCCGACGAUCCCUGUGCUACACAUCGUAUGUACCGAAUCGGGGAAAAAAAGGGGAAAAAGGGGAAAGGGGAAAGUAUUAUGUUACGCCGUUCGGAUCUGCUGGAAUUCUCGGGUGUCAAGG | 0.824 |
| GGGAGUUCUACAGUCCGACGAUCUGGCCCUGGUGGCAUGCGGGGUGGAAGAGGUGGCCUCAUGGAUCGUGGUGGUCCCGGUGGAAUGUUCAGAGGUGGCCGUGGUGGAGACAGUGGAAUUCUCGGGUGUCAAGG | 0.653 |
| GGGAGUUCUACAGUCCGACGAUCUGGCCCUGGUGGCAUGCGGGGAGGAAGAGGUGGCCUCAUGGUUCGUGGUGGUCCCGGUGGAAUGUUCAGAGGUGGCCGUGGUGGAGACAGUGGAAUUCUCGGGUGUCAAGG | 0.0253 |
| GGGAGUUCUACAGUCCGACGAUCCUCAAGUCCUGUGCUACACAUCGUAUGUACCGAAUCGGGGAAGGAAGGAAGGGAAAGUAUUAUGUUACGCCGUUCGGAUCUGCACUUCCAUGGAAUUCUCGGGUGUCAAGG | -0.535 |
| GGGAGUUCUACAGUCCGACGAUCCUCAAGUCCUGUGCUACACAUCGUAUGUACCGAAUCGGGGAAGGGGAAGGAAGGAAAGUAUUAUGUUACGCCGUUCGGAUCUGCACUUCCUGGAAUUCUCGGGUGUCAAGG | -0.823 |
| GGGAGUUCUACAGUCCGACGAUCUCCUGUGCUACACAUCGUAUGUACCGAAUCGGGGAGGGGAAAAAAAGGGGAAAAAGGGGAAAGUAUUAUGUUACGCCGUUCGGAUCUGCAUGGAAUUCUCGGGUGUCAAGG | 0.429 |
| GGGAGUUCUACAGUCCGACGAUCCUCAAGUCCUGUGCUACACAUCGUAUGUACCGAAUCGGAAAGGAAAGGAAAGGGAAAGUAUUAUGUUACGCCGUUCGGAUCUGCACUUCCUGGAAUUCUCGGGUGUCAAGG | -0.000245 |
